Measurements collected from several papers.
Numbers after ± are the reported error.

Substance	test	test system	setting	quantity	result
maraviroc		black CYP3A5 extensive metabolizers, plasma	300 mg twice daily	C12	45.3 ng/mL
deucravacitinib	multiple ascending dose	healthy human	oral, all doses pooled	subjects with gastrointestinal disorders	37.8%
chicoric acid	UPLC	broiler chicken, plasma	oral gavage, 20 mg/kg	AUC(0-inf)	490 ± 164 ng·h/mL
semaglutide	measured: serious adverse events	human, safety analysis set	concentration not given, 32 weeks, run-in	participants with adverse events	2.1%

For quick reference, copied from above:
Substance	test	test system	setting	quantity	result
maraviroc		black CYP3A5 extensive metabolizers, plasma	300 mg twice daily	C12	45.3 ng/mL
